Experimental data of several laboratories.
A part holds a random share of what one study measured. Changes are numbered by the printed parent chain.

Study 1
Target: Sal-like protein 4, full length isoform B (SALL4, Homo sapiens, UniProt Q9UJQ4-2, residues 1-616)
Technique: universal PBM
Molecule type: double-stranded DNA, one strand shown
Sample: in vitro
Tested at: not given
Setting: 8-mer, flanks averaged, mean of replicates
Reading: higher = stronger binding
Oligonucleotide | E-score
AGATATCG | 0.0166
GTAATTAC | 0.262
TACAGCGA | -0.0141
AAAAGTGC | 0.0321
GATTCCAA | -0.103
ATTGGTCA | 0.128
ATGGGACC | -0.0785
GTCAATTA | 0.222
TCCAGAGA | -0.268
ATTCCATA | 0.281
GTCCACTA | -0.0126
GTACAACA | 0.149
ACCTTCCG | -0.113
AGGACTCA | -0.0385
ACGTGAGC | -0.19
ACCCTCGT | -0.251
CACGGTTC | -0.211
GAATGAGC | 0.053
CGCGACTC | -0.207
GCGATCCA | -0.143

Study 2
Target: Histone acetyltransferase KAT6A, winged helix 2, GST fusion (KAT6A, Homo sapiens, UniProt Q92794, residues 85-181)
Technique: protein binding microarray
Molecule type: double-stranded DNA, one strand shown
Sample: in vitro
Tested at: not given
Setting: 8-mer, flanks averaged, mean of 2 arrays, mostly near background
Baseline: not given
Reading: higher = stronger binding
Residues (chain): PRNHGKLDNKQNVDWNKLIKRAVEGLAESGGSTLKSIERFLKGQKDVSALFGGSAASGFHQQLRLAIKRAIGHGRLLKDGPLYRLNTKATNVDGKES
Oligonucleotide | E-score
CCCAACAG | 0.0494
GATTCTGC | 0.17
AGATTGGC | -0.147
CACGTTGC | -0.0882
AAGATAGC | -0.0531
ACGAGGTG | -0.0176
ATCGGAAC | -0.0862
CCCCGTCA | 0.136
ACACGAAT | 0.0934
AAGCCGAT | 0.143
CCCTTCTA | -0.0954
CTAGAACC | -0.145
CCCGGAGA | 0.189
AAGAGAGA | -0.00571
ACGGGGAA | -0.0914
AATGCCGC | 0.204
GCTTTCTA | 0.15
CTCCATGA | 0.00563
CTCCCACC | 0.00375
CTGATATC | 0.0846
AAGCGACG | -0.111
CTGTAGAA | -0.0313
AAACTCAG | 0.00707
CAAAGAAG | 0.0474
TGGTATAA | -0.0698

Study 3
Target: Prothrombin, mature alpha-thrombin (F2, Homo sapiens, UniProt P00734)
Technique: aptamer microarray, sandwich
Molecule type: DNA with 2'F-ANA
Sample: in vitro
Tested at: 200 nM
Setting: whole 15-mer aptamer, many near background
Together with: Cy3 exosite-II aptamer, 400 nM
Reading: higher = stronger binding
Oligonucleotide: GGTTGGTGTGGTTGG
Modification | mean fluorescence intensity
2'F-ANA at 2 3 4 9 10 12 14 | 166 a.u.
2'F-ANA at 4 8 12 14 | 140 a.u.
2'F-ANA at 2 4 5 12 14 | 84.9 a.u.
2'F-ANA at 1 4 6 7 11 12 15 | 171 a.u.
2'F-ANA at 1 3 4 6 7 8 10 12 15 | 81.8 a.u.
2'F-ANA at 5 7 10 13 14 | 49.5 a.u.
2'F-ANA at 1 4 6 8 9 12 15 | 259 a.u.
2'F-ANA at 1 6 9 10 14 | 52.9 a.u.
2'F-ANA at 1 4 6 7 8 | 148 a.u.
2'F-ANA at 2 3 4 6 7 | 640 a.u.
2'F-ANA at 2 3 7 10 11 12 14 15 | 262 a.u.
2'F-ANA at 5 7 8 9 10 12 14 | 45.3 a.u.
2'F-ANA at 1 4 7 10 11 13 14 15 | 44 a.u.
2'F-ANA at 2 3 5 6 8 9 12 13 14 15 | 59 a.u.
2'F-ANA at 1 2 4 9 10 11 12 13 14 15 | 59.8 a.u.
2'F-ANA at 3 5 7 8 9 12 13 15 | 200 a.u.
2'F-ANA at 1 3 5 6 8 10 12 | 82.7 a.u.
2'F-ANA at 1 3 4 5 6 8 10 11 12 13 15 | 49.6 a.u.
2'F-ANA at 3 5 6 10 11 12 | 59.2 a.u.
2'F-ANA at 1 2 6 8 11 12 | 300 a.u.
2'F-ANA at 1 3 4 5 7 10 12 14 | 43.8 a.u.
2'F-ANA at 1 2 3 5 6 11 13 | 50.8 a.u.
2'F-ANA at 1 4 6 7 9 | 109 a.u.
2'F-ANA at 3 7 8 9 12 13 | 1200 a.u.
2'F-ANA at 1 5 6 8 11 12 13 15 | 152 a.u.

Study 4
Target: CCNB1, cyclin fold, Cln2 fusion (human)
Technique: yeast growth competition, sequencing
Sample: yeast
Setting: strong parent motif
Baseline: not given
Reading: higher = stronger binding
Parent: PKN2 docking peptide (human); VSAVQKLDFSDTM
Substitution | normalised enrichment score
VSAVQRLDFSDTM [K6R] | 2.25
NSAVQKLDFSDTM [V1N] | 2.64
VSAVQKLLFSDTM [D8L] | 1.09
VSAVQKEDFSDTM [L7E] | 0.16
VSAVQKLDFSDVM [T12V] | 1.95
VSAVQKLDFSDTW [M13W] | 1.68
VSANQKLDFSDTM [V4N] | 0.135
VSAVQKLDFIDTM [S10I] | 1.37
VSATQKLDFSDTM [V4T] | 0.351
VSAVQKLDFSDEM [T12E] | 2.83
VSAVQKTDFSDTM [L7T] | -0.638
VSAVQKLDASDTM [F9A] | 0.42
VLAVQKLDFSDTM [S2L] | 1.66
VSAVQKLDFSQTM [D11Q] | 0.906
VSAVQKLSFSDTM [D8S] | 1.01
VVAVQKLDFSDTM [S2V] | 1.08
VSAVQKLDVSDTM [F9V] | -0.344
VSAVQKLDFEDTM [S10E] | 2.79
VSAVQKLDFSDTN [M13N] | 2.27
HSAVQKLDFSDTM [V1H] | 2.34
VSAVQKLDISDTM [F9I] | 0.621
VSAVQKRDFSDTM [L7R] | 0.429
VSAVQKQDFSDTM [L7Q] | 0.00496
VSAVQKWDFSDTM [L7W] | -0.057
VSAVQKLDFSHTM [D11H] | 0.969

Study 5
Target: FOSB, bZIP domain (human)
Technique: DHFR protein complementation
Sample: yeast
Setting: single substitutions, most at no-binding floor
Baseline: wild-type JUN-FOS pair
Reading: higher = stronger binding
Parent: JUN, bZIP domain (human); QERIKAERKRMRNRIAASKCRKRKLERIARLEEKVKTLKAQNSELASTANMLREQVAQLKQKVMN; partner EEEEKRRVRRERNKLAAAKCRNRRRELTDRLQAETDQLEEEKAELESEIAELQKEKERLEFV
Substitution | binding fitness
T37G | -0.172 natural log
M51K | -0.0687 natural log
A57L | -0.313 natural log
E54S | -0.208 natural log
Q41H | -0.168 natural log
N42P | -1.14 natural log
T48C | -0.214 natural log
L52V | -0.826 natural log
S43E | -0.0074 natural log
E33I | -0.304 natural log
K36D | -0.185 natural log
E44D | -0.186 natural log
R30Q | 0.0236 natural log
S47F | -0.0775 natural log
A29H | -0.152 natural log
T37K | -0.011 natural log
A46V | -0.222 natural log
T37S | -0.0935 natural log
M51E | -0.103 natural log
A46W | -0.303 natural log
I28E | -0.126 natural log
V56E | -1.19 natural log
A46F | -0.336 natural log
A40G | -0.265 natural log
T48L | -0.0813 natural log

A few entries again (study 1):
Oligonucleotide | E-score
ACCTTCCG | -0.113
ATGGGACC | -0.0785
GTCCACTA | -0.0126
GTACAACA | 0.149
GCGATCCA | -0.143
CACGGTTC | -0.211
CGCGACTC | -0.207
ATTCCATA | 0.281
GAATGAGC | 0.053
ACGTGAGC | -0.19
ATTGGTCA | 0.128
AAAAGTGC | 0.0321
GTCAATTA | 0.222
GATTCCAA | -0.103
GTAATTAC | 0.262
